Published values from different studies.
Lines come from different studies, so protocols differ. ± marks the error that the study gave.
Organism: Plasmodium falciparum

Cc1[nH]c(C=NC23CC4CC(CC(C4)C2)C3)c(C)c1-c1ccc[nH]1  IC50 (parasite growth; Dd2, chloroquine-resistant): 1740 nM
CC1N=C(CCCCCCCCCCC2=CC(CCCCCCCCCCC3=NC(C)C(O)CC3)C3CCCN3C2)CCC1O (stereo not shown)  IC50 (pLDH; D6 chloroquine-sensitive): 0.56 ± 0.005 µg/mL
C=CC1CN2CCC1CC2C(OC(=O)NCCCCCCNC(=O)OC(c1ccnc2ccc(OC)cc12)C1CC2CCN1CC2C=C)c1ccnc2ccc(OC)cc12 (stereo not shown)  IC50 (parasite growth; FCB, chloroquine-resistant): 32 ± 5.4 nM
CC1=N[C@H](C)Cc2c(-c3ccc(C)cc3)ccc(O)c21  IC50 (parasite growth, SYBR Green; W2; 96 h, drug-resistant strain, blood stage): 962 nM
CCC1=CC(=CNC2CCCCCC2)N=C1c1ccc[nH]1  IC50 (parasite growth; 7G8, chloroquine-resistant): 1460 nM
CC[C@H](C)[C@@H]1NC(=O)[C@H](CCCCN)NC(=O)[C@H](CCCCN)NC(=O)[C@H](Cc2ccc(O)cc2)NC(=O)[C@H](CC(C)C)NC(=O)[C@@H]2CCCN2C(=O)[C@H](C)NC(=O)CNC(=O)CNC(=O)[C@H](CO)NC(=O)CNC(=O)CNC(=O)[C@H](CO)NC(=O)[C@H](CCC(=O)O)NC(=O)[C@H](CC(C)C)NC(=O)[C@H](CC(C)C)NC(=O)[C@H](CCCNC(=N)N)NC(=O)[C@H](CCCCN)NC(=O)[C@H]([C@@H](C)CC)NC(=O)[C@H]([C@@H](C)CC)NC(=O)[C@H](CCCCN)NC(=O)[C@H](CCCCN)NC(=O)[C@H](Cc2ccc(O)cc2)NC(=O)[C@H](CC(C)C)NC(=O)[C@@H]2CCCN2C(=O)CNC(=O)CNC(=O)[C@@H](NC(=O)CN)CSSC[C@@H](C(N)=O)NC(=O)[C@H](CC(C)C)NC(=O)[C@H](CCCNC(=N)N)NC(=O)[C@H](CCCCN)NC(=O)[C@H]([C@@H](C)CC)NC1=O  IC50 (parasite growth; 3D7; 72 h, 5% serum plus Albumax II): 10400 ± 700 nM
CC1=CC(=CNC2CCCCCCC2)N=C1c1ccc[nH]1  IC50 (parasite growth; Dd2, chloroquine-resistant): > 250 nM
OCCCCCCOCCCc1cccnc1  IC50 (anti-HRPII ELISA; W2 chloroquine-resistant; 72 h): 211000 ± 12700 nM
CC[C@H](C)[C@@H]1NC(=O)[C@H](CCCNC(=N)N)NC(=O)[C@H](CCCNC(=N)N)NC(=O)[C@H](Cc2ccc(O)cc2)NC(=O)[C@H](CC(C)C)NC(=O)[C@@H]2CCCN2C(=O)[C@H](C)NC(=O)CNC(=O)CNC(=O)[C@H](CO)NC(=O)CNC(=O)CNC(=O)[C@H](CO)NC(=O)[C@H](CCC(=O)O)NC(=O)[C@H](CC(C)C)NC(=O)[C@H](CC(C)C)NC(=O)[C@H](CCCNC(=N)N)NC(=O)[C@H](CCCNC(=N)N)NC(=O)[C@H]([C@@H](C)CC)NC(=O)[C@H]([C@@H](C)CC)NC(=O)[C@H](CCCNC(=N)N)NC(=O)[C@H](CCCNC(=N)N)NC(=O)[C@H](Cc2ccc(O)cc2)NC(=O)[C@H](CC(C)C)NC(=O)[C@@H]2CCCN2C(=O)CNC(=O)CNC(=O)[C@@H](NC(=O)CN)CSSC[C@@H](C(N)=O)NC(=O)[C@H](CC(C)C)NC(=O)[C@H](CCCNC(=N)N)NC(=O)[C@H](CCCNC(=N)N)NC(=O)[C@H]([C@@H](C)CC)NC1=O  IC50 (parasite growth; 3D7; 72 h, 5% serum plus Albumax II): 12500 ± 1200 nM
CC(C)(CO)NCC1=C(O)C(=O)c2ccccc2C1=O  IC50 (parasite growth; W2; drug-resistant strain, blood stage): 59900 nM
CCc1c(-c2ccc[nH]2)c[nH]c1C=NC12CC3CC(CC(C3)C1)C2  IC50 (parasite growth; Dd2, chloroquine-resistant): 1230 nM
COc1cccc2c(-c3ccc(O)c4c3CCN=C4)ccc(OC(C)C)c12  IC50 (parasite growth, SYBR Green; W2; 96 h, drug-resistant strain, blood stage): 285 nM
CCCCNCC(O)Cn1c2ccc(Br)cc2c2cc(Br)ccc21 (stereo not shown)  IC50 (SYBR Green I; Dd2 chloroquine-resistant; 72 h): 59 ± 12 nM
COC(=O)[C@@H]1Cc2c([nH]c3ccccc23)[C@@H](c2cccs2)N1  IC50 (parasite growth; 48 h, drug-resistant strain, blood stage): 6.95 µg/mL
COC1=CC(c2ccc[nH]2)=NC12OC(C)CC1CCCCCCCc3ccc([nH]3)C12 (stereo not shown)  IC50 (parasite growth; 7G8; drug-resistant strain, blood stage): 1.5 nM
CCC1=C(C)C(c2ccc[nH]2)=NC1=CNC1CCCCCC1  IC50 (parasite growth; Dd2, chloroquine-resistant): 200 nM
CCCCCCCCc1cc(CN(Cc2ccccn2)Cc2ccccn2)c(O)c(CN(Cc2ccccn2)Cc2ccccn2)c1  IC50 (growth, [3H]hypoxanthine incorporation; HB3 chloroquine-sensitive; 48 h): 195 ± 39 nM
O=C(CCc1ccc[nH]1)NCC(=O)NC12CC3CC(CC(C3)C1)C2  IC50 (parasite growth; 7G8, chloroquine-resistant): > 2500 nM
CC[C@H](C)[C@@H]1NC(=O)[C@H](CCCCN)NC(=O)[C@H](CCCCN)NC(=O)[C@H](Cc2ccc(O)cc2)NC(=O)[C@H](CC(C)C)NC(=O)[C@@H]2CCCN2C(=O)[C@H](C)NC(=O)CNC(=O)CNC(=O)[C@H](CO)NC(=O)CNC(=O)CNC(=O)[C@H](CCCNC(=N)N)NC(=O)[C@H](CCC(=O)O)NC(=O)[C@H](CC(C)C)NC(=O)[C@H](Cc2c[nH]cn2)NC(=O)[C@H](CCCCN)NC(=O)[C@H](CCCCN)NC(=O)[C@H]([C@@H](C)CC)NC(=O)[C@H]([C@@H](C)CC)NC(=O)[C@H](CCCCN)NC(=O)[C@H](CCCCN)NC(=O)[C@H](Cc2ccc(O)cc2)NC(=O)[C@H](CC(C)C)NC(=O)[C@@H]2CCCN2C(=O)CNC(=O)CNC(=O)[C@@H](NC(=O)CN)CSSC[C@@H](C(N)=O)NC(=O)[C@H](Cc2c[nH]cn2)NC(=O)[C@H](CCCCN)NC(=O)[C@H](CCCCN)NC(=O)[C@H]([C@@H](C)CC)NC1=O  IC50 (parasite growth; 3D7; 72 h, Albumax II medium, no serum): > 67500 nM
O=C(O)[C@@H]1Cc2c([nH]c3ccccc23)[C@@H](c2ccc(F)cc2Cl)N1  IC50 (parasite growth; Dd2; 72 h): 433 ± 55 nM
OCCc1cc(CN(Cc2ccccn2)Cc2ccccn2)c(O)c(CN(Cc2ccccn2)Cc2ccccn2)c1  IC50 (growth, [3H]hypoxanthine incorporation; W2 chloroquine-resistant; 48 h): 347 ± 73 nM
CC[C@H](C)[C@@H]1NC(=O)[C@H](CCCCN)NC(=O)[C@H](CCCCN)NC(=O)[C@H](Cc2ccc(O)cc2)NC(=O)[C@H](CC(C)C)NC(=O)[C@@H]2CCCN2C(=O)[C@H](C)NC(=O)CNC(=O)CNC(=O)[C@H](CO)NC(=O)CNC(=O)CNC(=O)[C@H](CO)NC(=O)[C@H](CCCCN)NC(=O)[C@H](CC(C)C)NC(=O)[C@H](CC(C)C)NC(=O)[C@H](CCCCN)NC(=O)[C@H](CCCNC(=N)N)NC(=O)[C@H]([C@@H](C)CC)NC(=O)[C@H]([C@@H](C)CC)NC(=O)[C@H](CCCCN)NC(=O)[C@H](CCCCN)NC(=O)[C@H](Cc2ccc(O)cc2)NC(=O)[C@H](CC(C)C)NC(=O)[C@@H]2CCCN2C(=O)CNC(=O)CNC(=O)[C@@H](NC(=O)CN)CSSC[C@@H](C(N)=O)NC(=O)[C@H](CC(C)C)NC(=O)[C@H](CCCCN)NC(=O)[C@H](CCCNC(=N)N)NC(=O)[C@H]([C@@H](C)CC)NC1=O  IC50 (parasite growth; 3D7; 72 h, Albumax II medium, no serum): 3200 ± 200 nM
COc1ccc2c(c1)[n+]([O-])c(C#N)c(-c1ccco1)[n+]2[O-]  IC50 (parasite growth, [3H]hypoxanthine incorporation; K1 chloroquine-resistant): 280 ± 70 nM
COc1ccc2cc1Oc1cc3c(cc1OC)CCN(C)C3Cc1ccc(cc1)Oc1c(O)c(OC)cc3c1C(C2)N(C)CC3 (stereo not shown)  IC50 (parasite growth, SYBR green I; Cam3.1 R539T (MRA1240)): 64.8 ± 8.9 nM
CC(=O)O[C@@H]1C[C@H]2C(C)(C)C(=O)C=C[C@]2(C)[C@H]2CC[C@]3(C)C(=CC[C@H]3C3=CC(O)OC3=O)[C@@]21C (stereo partly shown)  IC50 ([3H]hypoxanthine incorporation; W2, chloroquine-resistant): 1100 nM
COc1cc2c3c4c1Oc1cc5c(cc1O4)[C@H](Cc1ccc(OCCCN(C)C)c(c1)Oc1ccc(cc1)C[C@@H]3N(C)CC2)N(C)CC5  IC50 (parasite growth, SYBR Green I; drug-sensitive Cambodian isolates; median): 147 nM
CC[C@H](C)[C@@H]1NC(=O)[C@H](CCCCN)NC(=O)[C@H](CCCCN)NC(=O)[C@H](Cc2ccc(O)cc2)NC(=O)[C@H](CC(C)C)NC(=O)[C@@H]2CCCN2C(=O)[C@H](C)NC(=O)CNC(=O)CNC(=O)[C@H](CO)NC(=O)CNC(=O)CNC(=O)[C@H](CO)NC(=O)[C@H](CCC(=O)O)NC(=O)[C@H](CC(C)C)NC(=O)[C@H](CC(C)C)NC(=O)[C@H](CCCCN)NC(=O)[C@H](CCCCN)NC(=O)[C@H]([C@@H](C)CC)NC(=O)[C@H]([C@@H](C)CC)NC(=O)[C@H](CCCCN)NC(=O)[C@H](CCCCN)NC(=O)[C@H](Cc2ccc(O)cc2)NC(=O)[C@H](CC(C)C)NC(=O)[C@@H]2CCCN2C(=O)[C@H](C)NC(=O)CNC(=O)CNC(=O)[C@H](CO)NC(=O)CNC(=O)CNC(=O)[C@H](CO)NC(=O)[C@H](CCC(=O)O)NC(=O)[C@H](CC(C)C)NC(=O)[C@H](CC(C)C)NC(=O)[C@H](CCCCN)NC(=O)[C@H](CCCCN)NC(=O)[C@H]([C@@H](C)CC)NC1=O  IC50 (parasite growth; 3D7; 72 h, 5% serum plus Albumax II): 9000 ± 1300 nM
Clc1ccc(C2=CC(c3ccc[nH]3)=NC2=CNC2CCCCC2)cc1  IC50 (parasite growth; 7G8, chloroquine-resistant): 415 nM
CC[C@H](C)[C@@H]1NC(=O)[C@H](CCCCN)NC(=O)[C@H](CCCCN)NC(=O)[C@H](Cc2ccc(O)cc2)NC(=O)[C@H](CC(C)C)NC(=O)[C@@H]2CCCN2C(=O)[C@H](C)NC(=O)CNC(=O)CNC(=O)[C@H](CO)NC(=O)CNC(=O)CNC(=O)[C@H](CO)NC(=O)[C@H](CCC(=O)O)NC(=O)[C@H](CC(C)C)NC(=O)[C@H](CC(C)C)NC(=O)[C@H](CCCCN)NC(=O)[C@H](CCCCN)NC(=O)[C@H](C(C)C)NC(=O)[C@H]([C@@H](C)CC)NC(=O)[C@H](CCCCN)NC(=O)[C@H](CCCCN)NC(=O)[C@H](Cc2ccc(O)cc2)NC(=O)[C@H](CC(C)C)NC(=O)[C@@H]2CCCN2C(=O)CNC(=O)CNC(=O)[C@@H](NC(=O)CN)CSSC[C@@H](C(N)=O)NC(=O)[C@H](CC(C)C)NC(=O)[C@H](CCCCN)NC(=O)[C@H](CCCCN)NC(=O)[C@H](C(C)C)NC1=O  IC50 (parasite growth; 3D7; 72 h, Albumax II medium, no serum): 12700 ± 700 nM
C[OH+][Cu-2]12[O]C(c3cn(-c4ccccc4)nc3-c3ccc(C)cc3)=N[N+]1=C(C)c1c(cc(C)oc1=O)[O]2 (stereo not shown)  IC50 (SYBR Green I; 3D7; 72 h): 4800 nM
CC1=CC(c2ccc[nH]2)=NC1=CNC1CCCCCC1  IC50 (parasite growth; 7G8, chloroquine-resistant): > 250 nM
